Results collected from several papers.
Lines come from different studies, so protocols differ. ± gives the spread as reported.

CCCC[C@H](NC(=O)CNC(=O)CNC(=O)CN1CCN(CC(=O)O)CCN(CC(=O)O)CCN(CC(=O)O)CC1)C(=O)N[C@H]1CC(=O)NCCCC[C@@H](C(N)=O)NC(=O)[C@H](Cc2c[nH]c3ccccc23)NC(=O)[C@H](CCCNC(=N)N)NC(=O)[C@@H](Cc2ccccc2)NC(=O)[C@H](Cc2c[nH]cn2)NC1=O [copper-64 labelled]  tissue uptake (female C57 mouse, B16/F1 melanoma, stomach; intravenous, 0.037 MBq, 24 h): 1.21 ± 0.14 %ID/g
CCCC[C@H](NC(=O)CN1CCC(NC(=O)CN2CCN(CC(=O)O)CCN(CC(=O)O)CCN(CC(=O)O)CC2)CC1)C(=O)N[C@H]1CC(=O)NCCCC[C@@H](C(N)=O)NC(=O)[C@H](Cc2c[nH]c3ccccc23)NC(=O)[C@H](CCCNC(=N)N)NC(=O)[C@@H](Cc2ccccc2)NC(=O)[C@H](Cc2c[nH]cn2)NC1=O [gallium-68 labelled]  tissue uptake (C57BL/6J mouse, male, B16-F10 tumour, seminal vesicles; 1 h p.i., blocking, together with: 100 µg non-radioactive blocking agent): 0.4 ± 0.2 %ID/g
CC(C)[C@H](NC(=O)[C@@H]1CCCN1C(=O)[C@H](CCCNC(=N)N)NC(=O)[C@H](CS)NC(=O)[C@H](Cc1c[nH]c2ccccc12)NC(=O)[C@H](CCCNC(=N)N)NC(=O)[C@@H](Cc1ccccc1)NC(=O)[C@H](Cc1c[nH]cn1)NC(=O)[C@H](CCC(=O)O)NC(=O)[C@H](CS)NC(=O)[C@H](CS)NC(=O)CNC(=O)[C@@H]1CC(=O)N[C@@H](CCCNC(=N)N)C(=O)NCC(=O)N[C@@H](CC(=O)O)C(=O)N[C@H](Cc2ccc(O)cc2)C(=O)N1)C(N)=O [technetium-99m labelled]  tissue uptake (C57 mouse, female, B16/F1 melanoma, tumor; intravenous, 0.037 MBq, 0.5 h): 9.44 ± 1.22 %ID/g
CCCC[C@H](NC(=O)CNC(=O)CNC(=O)CN1CCN(CC(=O)O)CCN(CC(=O)O)CCN(CC(=O)O)CC1)C(=O)N[C@H]1CC(=O)NCCCC[C@@H](C(N)=O)NC(=O)[C@H](Cc2c[nH]c3ccccc23)NC(=O)[C@H](CCCNC(=N)N)NC(=O)[C@@H](Cc2ccccc2)NC(=O)[C@H](Cc2c[nH]cn2)NC1=O [lead-203 labelled]  tissue uptake (C57 mouse, blood; intravenous, 0.056 MBq, 4 h): 0.59 ± 0.16 %ID/g
O=C([O-])CN1CCN(CC(=O)[O-])CCN(CC(=O)NCCc2ccc3c(c2)C2C=CCC2C(c2cc4c(cc2Br)OCO4)N3)CCN(CC(=O)[O-])CC1.[111In+3] (stereo not shown)  tissue uptake (mouse, Hec50 endometrial tumour, heart; 1 h post injection): 1.46 ± 0.19 %ID/g
CC(C)[C@H](NC(=O)[C@@H]1CCCN1C(=O)[C@H](CCCNC(=N)N)NC(=O)[C@H](CS)NC(=O)[C@H](Cc1c[nH]c2ccccc12)NC(=O)[C@H](CCCNC(=N)N)NC(=O)[C@@H](Cc1ccccc1)NC(=O)[C@H](Cc1c[nH]cn1)NC(=O)[C@H](CCC(=O)O)NC(=O)[C@H](CS)NC(=O)[C@H](CS)NC(=O)[C@@H]1CC(=O)N[C@@H](CCCNC(=N)N)C(=O)NCC(=O)N[C@@H](CC(=O)O)C(=O)N[C@H](Cc2ccc(O)cc2)C(=O)N1)C(N)=O [technetium-99m labelled]  tissue uptake (C57 mouse, female, B16/F1 melanoma, pancreas; intravenous, 0.037 MBq, 2 h): 0.29 ± 0.1 %ID/g
O=C(CCCCC[N+]#[C][99Tc-5]([C]#[N+]CCCCCC(=O)N[C@H]1C(O)O[C@H](CO)[C@@H](O)[C@@H]1O)([C]#[N+]CCCCCC(=O)N[C@H]1C(O)O[C@H](CO)[C@@H](O)[C@@H]1O)([C]#[N+]CCCCCC(=O)N[C@H]1C(O)O[C@H](CO)[C@@H](O)[C@@H]1O)([C]#[N+]CCCCCC(=O)N[C@H]1C(O)O[C@H](CO)[C@@H](O)[C@@H]1O)[C]#[N+]CCCCCC(=O)N[C@H]1C(O)O[C@H](CO)[C@@H](O)[C@@H]1O)N[C@H]1C(O)O[C@H](CO)[C@@H](O)[C@@H]1O (stereo partly shown)  tissue uptake (BALB/c nude mouse, U87 MG xenograft, brain; dose not given): 0.02 %ID/g
CC(C)[C@H](NC(=O)[C@@H]1CCCN1C(=O)[C@H](CCCNC(=N)N)NC(=O)[C@H](CS)NC(=O)[C@H](Cc1c[nH]c2ccccc12)NC(=O)[C@H](CCCNC(=N)N)NC(=O)[C@@H](Cc1ccccc1)NC(=O)[C@H](Cc1c[nH]cn1)NC(=O)[C@H](CCC(=O)O)NC(=O)[C@H](CS)NC(=O)[C@H](CS)NC(=O)COCCOCCNC(=O)[C@@H]1CC(=O)N[C@@H](CCCNC(=N)N)C(=O)NCC(=O)N[C@@H](CC(=O)O)C(=O)N[C@H](Cc2ccc(O)cc2)C(=O)N1)C(N)=O [technetium-99m labelled]  tissue uptake (nude mouse, M21 melanoma xenograft, stomach; intravenous, 2 h): 0.66 ± 0.19 %ID/g
CC(C)C[C@H](NC(=O)C[C@H](O)[C@H](CC(C)C)NC(=O)[C@H](Cc1c[nH]cn1)NC(=O)CNC(=O)[C@@H](NC(=O)[C@H](C)NC(=O)[C@H](Cc1c[nH]c2ccccc12)NC(=O)[C@H](CCC(N)=O)NC(=O)[C@@H](Cc1ccccc1)NC(=O)CCNC(=O)CCNC(=O)CN1CCN(CC(=O)O)CCN(CC(=O)O)CCN(CC(=O)O)CC1)C(C)C)C(N)=O [lutetium-177 labelled]  tissue uptake (mouse PC-3 xenograft, tumour; intraperitoneal, 200 pmol, 1 h, without PA): 8.9 ± 2.4 %ID/g
CCCC[C@H](NC(=O)CNC(=O)CNC(=O)CN1CCN(CC(=O)O)CCN(CC(=O)O)CC1)C(=O)N[C@H]1CC(=O)NCCCC[C@@H](C(N)=O)NC(=O)[C@H](Cc2c[nH]c3ccccc23)NC(=O)[C@H](CCCNC(=N)N)NC(=O)[C@@H](Cc2ccccc2)NC(=O)[C@H](Cc2c[nH]cn2)NC1=O [copper-64 labelled]  tissue uptake (female C57 mouse, B16/F1 melanoma, brain; intravenous, 0.037 MBq, 0.5 h): 0.1 ± 0.03 %ID/g
O=C(O)CCC(NP(=O)(O)OCCC[C@@H](NC(=O)CC[C@H](NC(=O)CCCCCNC(=O)c1ccc([18F])cc1)C(=O)O)C(=O)O)C(=O)O (stereo partly shown)  tissue uptake (mouse, CWR22Rv1 xenograft, bone; dose not given, 4 h, blocking agent pre-dosed): 0.041 ± 0.007 %ID/g
COC(=O)c1ccc(-c2cn(Cc3cc(Cl)ccc3O[11CH3])nn2)cc1  tissue uptake (PET/CT; C57BL/6 mouse, kidney; 60 min): 6.19 %ID/cc
CN(C)c1ccc(-c2nc3ccc(OCCCCCN4CCN5CCN(CC4)CC(=O)[O][Al]([18F])[O]C(=O)C5)cc3s2)cc1  tissue uptake (ICR mouse, kidney; intravenous, 30 min): 3.46 ± 0.47 %ID/g

Excerpt of the above:
O=C([O-])CN1CCN(CC(=O)[O-])CCN(CC(=O)NCCc2ccc3c(c2)C2C=CCC2C(c2cc4c(cc2Br)OCO4)N3)CCN(CC(=O)[O-])CC1.[111In+3] (stereo not shown)  tissue uptake (mouse, Hec50 endometrial tumour, heart; 1 h post injection): 1.46 ± 0.19 %ID/g
CC(C)[C@H](NC(=O)[C@@H]1CCCN1C(=O)[C@H](CCCNC(=N)N)NC(=O)[C@H](CS)NC(=O)[C@H](Cc1c[nH]c2ccccc12)NC(=O)[C@H](CCCNC(=N)N)NC(=O)[C@@H](Cc1ccccc1)NC(=O)[C@H](Cc1c[nH]cn1)NC(=O)[C@H](CCC(=O)O)NC(=O)[C@H](CS)NC(=O)[C@H](CS)NC(=O)[C@@H]1CC(=O)N[C@@H](CCCNC(=N)N)C(=O)NCC(=O)N[C@@H](CC(=O)O)C(=O)N[C@H](Cc2ccc(O)cc2)C(=O)N1)C(N)=O [technetium-99m labelled]  tissue uptake (C57 mouse, female, B16/F1 melanoma, pancreas; intravenous, 0.037 MBq, 2 h): 0.29 ± 0.1 %ID/g
